Results of several laboratories.
Parts stem from different laboratories: compare values within a part only.

Series 1
Target: Phosphate system positive regulatory protein PHO4, full length, GST-tagged (PHO4, Saccharomyces cerevisiae, UniProt P07270, residues 1-312)
Sequence of UniProt P07270 (whole entry, looked up): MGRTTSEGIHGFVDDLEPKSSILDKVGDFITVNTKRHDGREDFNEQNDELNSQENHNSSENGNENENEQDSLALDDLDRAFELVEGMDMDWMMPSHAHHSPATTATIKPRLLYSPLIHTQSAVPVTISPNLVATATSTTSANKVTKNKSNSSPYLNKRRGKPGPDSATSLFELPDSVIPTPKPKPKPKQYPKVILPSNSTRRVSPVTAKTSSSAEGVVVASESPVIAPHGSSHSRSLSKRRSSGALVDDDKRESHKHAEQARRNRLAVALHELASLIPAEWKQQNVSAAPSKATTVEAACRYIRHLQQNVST
Method: competition protein-binding microarray
Molecule type: double-stranded DNA, one strand shown
Medium: in vitro
Tested at: 2 µM
Setting: whole 60-bp probe, lowest competitor level
Added: Cbf1 competitor, 0.05 µM
Direction: higher = stronger binding
Oligonucleotide	fluorescence intensity
GTCTTGTCTCATTGGCACGTGTTTTTCCCCACTTCAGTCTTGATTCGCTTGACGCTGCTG	14400 a.u.
CTTCTGTAAATTTTTCACGTGTTCTGACGCGCCCCGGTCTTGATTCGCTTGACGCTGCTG	13300 a.u.
CCATGGACAATTTCACACGTGAAAATTGGTTACCATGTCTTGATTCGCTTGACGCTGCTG	10800 a.u.
TGGGGCCCGCCGTCCAACGTGCGGATACCGTACCCTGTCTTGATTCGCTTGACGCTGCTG	10000 a.u.
TCATAGTAGGTTTGTCATGCGCGTTGGAAAAAGAAAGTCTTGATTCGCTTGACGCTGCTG	6700 a.u.
TGCGCAACAACTTGTATGGTGGGTGTATGTCTAGAAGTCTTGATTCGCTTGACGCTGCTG	4880 a.u.
GGTTTTGTAGGACTAGGTGTGATGAGTGGTGGCTTTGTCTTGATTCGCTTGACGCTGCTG	5480 a.u.
CGGGGTTAAGTTTTTCACGTGAGTTGCTTGCAGCAGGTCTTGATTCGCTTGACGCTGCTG	10300 a.u.
CTAACGAAGGTTTGTCACATGACTTACAAGCCAAGTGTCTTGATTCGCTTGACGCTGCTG	6390 a.u.
CTAACGAAGGTTTGTCACGTGTTTTACAAGCCAAGTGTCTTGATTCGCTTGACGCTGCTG	14100 a.u.

Series 2
Target: Interferon regulatory factor 7, full length, phosphomimetic (IRF7, Homo sapiens, UniProt Q92985, residues 1-503, S101K/S471D/S472D/S475D/S476D/S477D/S483D/S484D/S487D)
Method: protein-binding microarray
Molecule type: double-stranded DNA, one strand shown
Medium: in vitro
Tested at: 250 nM
Setting: 60-bp whole probe
Added: salmon DNA 0.4 mg/ml
Relative to: random background probes
Direction: higher = stronger binding
Constant ends, left off below: GCCTAGCAC … GTCTTGATTCGCTTGACGCTGCTG
Construct (chain): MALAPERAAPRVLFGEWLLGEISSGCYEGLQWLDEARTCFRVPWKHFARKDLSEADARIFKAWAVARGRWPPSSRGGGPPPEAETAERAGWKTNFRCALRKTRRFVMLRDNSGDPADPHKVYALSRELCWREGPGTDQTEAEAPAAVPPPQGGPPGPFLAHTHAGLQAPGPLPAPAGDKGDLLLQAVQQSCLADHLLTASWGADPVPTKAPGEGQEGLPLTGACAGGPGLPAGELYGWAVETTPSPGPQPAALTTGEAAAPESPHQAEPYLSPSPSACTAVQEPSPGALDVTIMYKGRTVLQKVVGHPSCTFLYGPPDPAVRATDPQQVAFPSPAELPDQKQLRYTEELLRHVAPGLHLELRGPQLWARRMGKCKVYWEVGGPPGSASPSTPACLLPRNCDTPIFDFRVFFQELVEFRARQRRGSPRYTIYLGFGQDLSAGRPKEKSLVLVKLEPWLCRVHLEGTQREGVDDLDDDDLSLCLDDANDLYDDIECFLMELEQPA
Oligonucleotide	log fluorescence [z-score]
TTAGGTCTCGGTCTCGGGTAGTGCTAG	1.68
GATGGACTGCTACTGCTGACGTGCTAG	-0.94
TTAGGTTTCGGGACTGGGGTAGTGCTA	3.4
TTAGATCTCATTTTCGATTAGTGCTAG	3.34
GACGGTATCCTTCTCCTGAAGTGCTAG	0.0017
TGCCCCCACACTCCTAGCACGTGCTAG	0.0827
GACGATATCGGGCCTGGAGACGTGCTA	-0.522
TTAGGTTTCGGGTTACGGTTAGTGCTA	12.9
ATGACCTCACTGCCTGACACGTGCTAG	-0.122

Series 3
Target: RING finger protein unkempt homolog, zinc fingers 1-6, GST-SBP tag (UNK, Homo sapiens, UniProt Q9C0B0, residues 30-357)
Method: RNA Bind-n-Seq
Molecule type: RNA
Medium: in vitro
Tested at: not given
Setting: RNA with constant flanks, human and mouse sites, ends assumed
Relative to: input RNA pool
Direction: higher = stronger binding
Target sequence (chain): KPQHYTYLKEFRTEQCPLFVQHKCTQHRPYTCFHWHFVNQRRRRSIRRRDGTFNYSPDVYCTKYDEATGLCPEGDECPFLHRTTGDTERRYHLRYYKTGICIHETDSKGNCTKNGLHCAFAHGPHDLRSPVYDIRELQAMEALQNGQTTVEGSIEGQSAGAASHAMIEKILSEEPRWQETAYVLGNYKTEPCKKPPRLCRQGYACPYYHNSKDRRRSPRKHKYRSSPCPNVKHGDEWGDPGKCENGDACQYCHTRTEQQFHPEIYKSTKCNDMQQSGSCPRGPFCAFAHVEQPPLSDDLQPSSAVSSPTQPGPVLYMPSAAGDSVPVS
Oligonucleotide	bound/input enrichment [ratio]
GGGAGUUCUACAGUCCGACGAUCAUAUGACUAGCAAGCUAGCUGUUUUUAAUCUCUUCUGCAAGUUUGGUGAUCCGUGUGGUUUAGUAGAGAUAUUAAAAUUAUUAAAAAUACUAUGUUGAUUUCAGAAGAGACUAGCUUUGUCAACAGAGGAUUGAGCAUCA	11.5
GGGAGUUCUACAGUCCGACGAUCAUAGUAUGUUCUCCUGUUCCUAUGUUAAGGGAUCUGACACAGAACACUGUAGUCAGUAUUAAUUUUAAAGACCCACAGUUUGCUGAAGAUUACAUUUUUAAAGCUGUAAUGCUUCCAGGACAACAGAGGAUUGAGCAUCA	0.332
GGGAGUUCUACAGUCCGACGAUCCCUUGGCCGACUACACCAGAGAAUACACAUUCAGUGACAUCUUGCUGAUGCUGUGCUUGCUAGUACUGCCAAGGCGAGUGUGUGGCCUUUCUUUCCAGCUCUCUGCAGAGAUGCUGGGGACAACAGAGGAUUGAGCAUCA	0.0953
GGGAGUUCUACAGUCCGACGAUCCUUUUUGCAGGGCUUAUGGUUAAAGUUCCUGUGGGGUUAUAUUUUUCCUGCAAAUUACUUCUUUUCCAAAGUCUGAUGUUGAUGUCCCCUGAAGACAGCGGCUUUUAUGCGACCAUUGUUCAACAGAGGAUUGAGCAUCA	0.276
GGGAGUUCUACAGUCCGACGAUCACUGGAUUCGGCAUCAUCCCUGUGGGAGGCACUUACCUCAUCCAGUCUGUUCCCGCUGAGCUCAAUAUGGAUCACACUGUUGUGCUGCAGCUGGCCGAGAAAAACGGGUAUGUGACUGUCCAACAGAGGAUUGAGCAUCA	0.137
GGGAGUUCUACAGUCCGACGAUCUAAACAUUGUAUGCAUUUUGAUUUUUCCUACUUUAAGAAAAUAAAAUAAUUUAAUUUUACAUUAGAUUCCACGUUAGAUUUGGUUUGAAAAACUAAAAUUUCAGAUUUCUGAGGAUAUACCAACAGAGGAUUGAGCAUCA	1.77
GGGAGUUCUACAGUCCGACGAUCAUUUUGUAAAUACUGUAUACCAUGUAUUAUGUGUAUAUUGUUCAUACUUGAGAGGUAUAUUAUAGUUUUGUUAUGAAAGUAUGUAUUUUGCCCUGCCCACAUUGCAGGUGUUUUGUAUAUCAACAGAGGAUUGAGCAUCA	4.62

Single results of other studies
Substance	target	test	system	conditions	scale	quantity	value
PhoQ, residues 284 288 289 292 302 303 NLMGRA	PhoP, residues 12 14 15 18 19 NQGLL (Escherichia coli, UniProt P23836)	Sort-seq, item: YFP reporter	E. coli	PhoQ-PhoP variant library, added: 10 µM Mg2+	relative to: high Mg2+ state, higher = stronger signaling	fold induction	14.1

Excerpt of the above (series 2):
Oligonucleotide	log fluorescence [z-score]
GACGGTATCCTTCTCCTGAAGTGCTAG	0.0017
TTAGGTTTCGGGTTACGGTTAGTGCTA	12.9
TTAGATCTCATTTTCGATTAGTGCTAG	3.34
GATGGACTGCTACTGCTGACGTGCTAG	-0.94
